# Published values of several laboratories.
# ± marks the error that the study gave.
# Organism: Plasmodium falciparum
SMILES,assay,system,conditions,IC50
Nc1ccc(S(=O)(=O)c2ccc(N)cc2)cc1,cell growth,"erythrocytes, 3D7",low-folate medium,38000 ± 630 nM
CC1=C(Cn2ccnc2[N+](=O)[O-])C(=O)c2ccccc2C1=O,"parasite growth, [3H]hypoxanthine incorporation",NF54,72 h,> 10000 nM
Cc1[nH]c(/C=C2\N=C(c3ccc[nH]3)C3=C2OCCO3)cc1Cc1ccc(Cl)cc1,"parasite growth, SYBR Green fluorescence","Tm90-C2B (atovaquone-resistant), asexual blood stage",72 h,14.8 nM
CCc1nc(N)nc(N)c1-c1ccc(Cl)cc1,cell growth,"erythrocytes, K1",low-folate medium,2230 ± 330 nM
O=C(CC1NCCCC1O)Cn1cnc2cc(Br)c(Cl)cc2c1=O (centres unmarked),parasite growth,conditional knockdown control line,"120 h, together with: 3 nM anhydrotetracycline",0.4 nM
CC1=C(Cn2cnc([N+](=O)[O-])n2)C(=O)c2ccccc2C1=O,"parasite growth, [3H]hypoxanthine incorporation",NF54,72 h,> 10000 nM
COc1ncnc(NS(=O)(=O)c2ccc(N)cc2)c1OC,cell growth,"erythrocytes, Dd2",low-folate medium,517000 ± 206000 nM
NC(N)=Nc1ccc(-c2ccc(-c3ccc(N=C(N)N)c(Cl)c3)o2)cc1Cl,"parasite growth, stage-specific treatment",,"12 h, early to late schizont stage",570 ± 300 nM
COC1=CC(c2ccc[nH]2)=N/C1=C\c1cc(Cc2ccc(OC)cc2)c(-c2ccc(OC)cc2)[nH]1,"parasite growth, SYBR Green fluorescence","Tm90-C2B (atovaquone-resistant), asexual blood stage",72 h,113 nM
O=C1C(O)=C([C@H]2CC[C@H](c3ccc(Cl)cc3)CC2)C(=O)c2ccccc21,growth,3D7,72 h,3 ± 2 nM
Oc1cccc(C(Nc2nccs2)c2ccc3cccnc3c2O)c1 (centres unmarked),"parasite growth, stage-specific treatment",,"12 h, early to late trophozoite stage",7130 ± 300 nM
O[C@H](CN[C@@H](COCC1CC1)Cc1ccccc1)c1cc(Cl)cc2c1-c1ccc(Cl)cc1C2,,3D7,48 h,10.4 ± 1.4 nM
CCC1=C(CC)/C(=C/c2[nH]c(Cc3ccc(Cl)cc3)cc2Cc2ccc(Cl)cc2)N=C1c1ccc[nH]1,"parasite growth, SYBR Green fluorescence","Tm90-C2B (atovaquone-resistant), asexual blood stage",72 h,153 nM
CC1=C(Cn2cc(CN)nn2)C(=O)c2ccccc2C1=O,"parasite growth, [3H]hypoxanthine incorporation",NF54,72 h,> 10000 nM
COC1=CC(c2ccc[nH]2)=N/C1=C\c1[nH]c(-c2ccccc2)cc1-c1ccccc1,"parasite growth, SYBR Green fluorescence","Dd2 (multidrug-resistant), asexual blood stage",72 h,11.8 nM
CCCCCCCCNCC(O)c1cc(Cl)cc2c1-c1ccc(Cl)cc1C2 (racemic),,3D7,48 h,2.1 ± 0.1 nM
CCC(=O)CCCCCCC(=O)Nc1ccccc1,[3H]-hypoxanthine incorporation,,,83300 nM
OC(c1cc(C(F)(F)F)nc2c(C(F)(F)F)cccc12)C1CCCCN1 (centres unmarked),,3D7,48 h,22.4 ± 15 nM
CCOc1ccc(-c2nc(CNCCc3ccc(F)cc3)cs2)cc1,"parasite growth, inhibitor, SYBR Green I",3D7,,20700 nM
CCC1=C(CC)/C(=C/NC23CC4CC(CC(C4)C2)C3)N=C1c1cc2ccccc2[nH]1,"parasite growth, asexual blood stage","Tm90-C2B, atovaquone-resistant MDR isolate","72 h, MSF",410 nM
N=C(CC(O)c1nc2ccccc2c2ccc(Cl)cc12)Nc1ccc(F)cc1 (centres unmarked),"parasite growth, HRP2 ELISA",clinical isolates from Gabon,"ex vivo, range over isolates",0.2 to 111 nM
CC1(C)Cc2c([nH]c3ccccc23)C2(N1)C(=O)Nc1ccc(Cl)cc12 (centres unmarked),"parasite growth, [3H]hypoxanthine incorporation",NF54,,> 1000 nM
COC1=CC(c2ccc[nH]2)=N/C1=C\c1[nH]c(C)cc1Cc1ccc(OC(F)(F)F)cc1,"parasite growth, SYBR Green fluorescence","Tm90-C2B (atovaquone-resistant), asexual blood stage",72 h,2.88 nM
CCN(CC)CCCC(C)Nc1ccnc2cc(Cl)ccc12 (centres unmarked),"asexual parasite proliferation, SYBR Green I fluorescence",Dd2,,63 ± 14 nM
O=C(CCCCCONC(=O)c1nc(-c2cccnc2)cs1)NO,"asexual blood-stage growth, [3H]hypoxanthine uptake",3D7,72 h,610 nM
CC1=C(Cc2cn(CCN3CCNCC3)nn2)C(=O)c2ccccc2C1=O,"parasite growth, [3H]hypoxanthine incorporation",NF54,72 h,6510 nM
Cc1ccc(C(=O)Nc2ccc(S(=O)(=O)O)c3cc(S(=O)(=O)O)cc(S(=O)(=O)O)c23)cc1NC(=O)c1cccc(NC(=O)Nc2cccc(C(=O)Nc3cc(C(=O)Nc4ccc(S(=O)(=O)O)c5cc(S(=O)(=O)O)cc(S(=O)(=O)O)c45)ccc3C)c2)c1,"parasite growth, inhibitor, SYBR Green I",3D7,,> 100000 nM
CC1(C)N=C(N)N=C(N)N1c1ccc(Cl)cc1,parasite growth,"erythrocytes, 3D7",low-folate medium,4.36 ± 0.24 nM
CCCCCNC[C@@H](O)c1cc(Cl)cc2c1-c1ccc(Cl)cc1C2,,3D7,48 h,5.2 ± 1.2 nM
CCC1=C(CC)/C(=C/NC23C[C@H]4C[C@@H](C2)C[C@@H](C3)C4)N=C1c1ccc(CC)[nH]1,"parasite growth, SYBR Green I fluorescence","D6, chloroquine-sensitive",72 h,< 1 nM
O=C(O)c1cc(-c2ccc(Br)cc2)nc2ccc(Cl)cc12,"parasite growth, inhibitor, SYBR Green I",3D7,,70300 nM
O[C@@H](CNCCCC(F)(F)F)c1cc(Cl)cc2c1-c1ccc(Cl)cc1C2,,3D7,48 h,4.4 ± 0.2 nM
CC(C)(C)NC(=O)[C@@H]1CN(Cc2cnc3occc3c2)CCN1C[C@@H](O)C[C@@H](Cc1ccccc1)C(=O)N[C@H]1c2ccccc2C[C@H]1O,"parasite growth, inhibitor, SYBR Green I",3D7,,629 nM
O=C1Nc2ccc(Cl)cc2C12NCCc1c2[nH]c2ccccc12 (centres unmarked),"parasite growth, [3H]hypoxanthine incorporation",NF54,,54 nM
Cc1[nH]c(/C=C2\N=C(c3ccc[nH]3)C=C2OCc2ccccc2)cc1Cc1ccc(Cl)cc1,"parasite growth, SYBR Green fluorescence","Tm90-C2B (atovaquone-resistant), asexual blood stage",72 h,11.8 nM
CC1(C)N=C(N)N=C(N)N1c1ccc(Cl)cc1,growth,3D7,96 h,9 ± 2 nM
COC1=CC(c2ccc[nH]2)=N/C1=C\c1[nH]c(Cc2ccc(OC(F)(F)F)cc2)cc1Cc1ccc(OC(F)(F)F)cc1,"parasite growth, SYBR Green fluorescence","Tm90-C2B (atovaquone-resistant), asexual blood stage",72 h,34.7 nM
"COc1cc(C)c(-c2ccc(O)c3c2C[C@@H](C)N[C@@H]3C)c2cccc(O)c12 (single isomer, unassigned)","asexual parasite proliferation, SYBR Green I fluorescence",Dd2,,29.7 ± 8.3 nM
CCCCCCNCC(O)c1cc(Cl)cc2c1-c1ccc(Cl)cc1C2 (racemic),,3D7,48 h,4.1 ± 0.1 nM
CC1=C(Cn2cncn2)C(=O)c2ccccc2C1=O,"parasite growth, [3H]hypoxanthine incorporation",NF54,72 h,7480 nM
COc1cc(CO)c(-c2ccc3c(c2O)[C@@H](C)N[C@H](C)C3)c2cccc(O)c12,"asexual parasite proliferation, SYBR Green I fluorescence",Dd2,,38 ± 12 nM
CCCCN(CCCC)CC(O)c1cc(Cl)cc2c1-c1ccc(Cl)cc1/C2=C/c1ccc(Cl)cc1 (centres unmarked),parasite growth,"Plasmodium falciparum 3D7, 3D7",48 h,7.3 ± 5.4 nM
N=C(N)NCCCCC(=O)Nc1cc(C(F)(F)F)cc(NC(=O)c2cc(C(=O)Nc3cc(C(F)(F)F)cc(NC(=O)CCCCNC(=N)N)c3O[C@@H]3CCNC3)ncn2)c1O[C@@H]1CCNC1,"parasite growth, stage-specific treatment",,"12 h, early to late trophozoite stage",2060 ± 90 nM
"Cl.Oc1cccc2c1[nH]c1c(C3=CC4(O)CC/C=C\CCCCN5CCC3C3(CC6/C=C\CCCCN6C43)C5)nccc12 (single isomer, unassigned; (+))",parasite LDH,"D6, chloroquine-sensitive",72 h,0.027 ± 0.007 µg/mL
CN1CCC(NCc2cccc(-c3ccc(S(=O)(=O)NCc4ccccc4)cc3)c2)CC1,"parasite growth, inhibitor, SYBR Green I",3D7,,400 nM
CC1=C(Cn2ccnn2)C(=O)c2ccccc2C1=O,"parasite growth, [3H]hypoxanthine incorporation",NF54,72 h,> 10000 nM
COC1=CC(c2ccc[nH]2)=N/C1=C\c1[nH]c(C(=O)O)cc1Cc1ccc(Cl)cc1,"parasite growth, SYBR Green fluorescence","Tm90-C2B (atovaquone-resistant), asexual blood stage",72 h,> 2500 nM
